Assay results of several laboratories.
Compare with care: the assays were run in different laboratories. “And” joins repeats or separate records; there may be more than shown. ± marks the error that the study gave.

CC(=O)N[C@H](C(=O)N[C@@H](CCCC(=O)OC(C)(C)C)C(=O)N[C@@H](CCC1CCCCC1)C(=O)N[C@@H](CC(=O)O)C(=O)COC(=O)c1c(C)cccc1C)C(C)(C)C  blood concentration (C57BL/6N mouse, female, whole blood; intraperitoneal, dose not given, 3 h): 439 µM and 589 µM
CC[C@H](C)[C@H](NC(=O)[C@H](CCCCN)NC(=O)CNC(=O)[C@H](CC(C)C)NC(=O)[C@H](Cc1ccccc1)NC(=O)[C@H](CCCCN)NC(=O)[C@H](CO)NC(=O)[C@H](Cc1ccccc1)NC(=O)[C@H](Cc1c[nH]c2ccccc12)NC(=O)[C@H](CCC(N)=O)NC(=O)[C@@H](NC(=O)[C@H](Cc1ccccc1)NC(=O)CCCCCNC(=O)CN1CCN(CC(=O)O)CCN(CC(=O)O)CCN(CC(=O)O)CC1)C(C)C)C(=O)N[C@@H](CCC(=O)O)C(=O)N1CCC[C@H]1C(=O)N[C@@H](CC(=O)O)C(=O)N[C@H](C(=O)N[C@@H](CO)C(=O)N[C@@H](CCC(N)=O)C(=O)N[C@H](C(=O)N[C@@H](CCC(N)=O)C(=O)N[C@@H](CC(=O)O)C(=O)N1CCC[C@H]1C(=O)N[C@@H](CC(N)=O)C(=O)N[C@@H](CC(=O)O)C(=O)N[C@@H](CCC(N)=O)C(=O)N[C@@H](Cc1ccc(O)cc1)C(=O)N[C@@H](CCC(=O)O)C(=O)N1CCC[C@H]1C(=O)N[C@@H](Cc1ccccc1)C(=O)O)C(C)C)C(C)C [copper-64 labelled]  tissue uptake (BALB/c mice, male, CT26 tumour-bearing, blood; 2 h, anti-PD1 plus anti-CTLA4 treated): 0.56 ± 0.02 %ID/g
CC(C)[C@@H]1NC(=O)CNC(=O)[C@H](CC(N)=O)NC(=O)[C@H](CCCNC(=N)N)NC(=O)[C@H](Cc2ccc(O)cc2)NC(=O)[C@H](C(C)C)NC(=O)[C@@H](NC(=O)[C@@H](NC(=O)[C@H](CC(N)=O)NC(=O)[C@H](Cc2c[nH]c3ccccc23)NC(=O)[C@H](C)NC(=O)[C@H](Cc2ccccc2)NC(=O)CNC(=O)[C@H](CCCCN)NC(=O)[C@H](Cc2ccccc2)NC(=O)[C@H](Cc2ccccc2)NC(=O)[C@H](CCCCN)NC(=O)OCC2c3ccccc3-c3ccccc32)C(C)C)CSSC[C@@H](C(=O)N[C@@H](Cc2c[nH]cn2)C(=O)N[C@@H](CCCNC(=N)N)C(=O)N[C@@H](CCCNC(=N)N)C(=O)N[C@@H](C)C(=O)N[C@@H](CC(N)=O)C(N)=O)NC(=O)[C@H](C(C)C)NC(=O)[C@H](CCCNC(=N)N)NC1=O  haemoglobin (ICR mouse, blood; intramammary, 10 mg/kg, day 5, 3 d dosing): 121 ± 3.3 g/L
CCCCCCCCCCCCCCCC(=O)N[C@@H](CCC(=O)NCCOCCOCCC(=O)NCCOCCOCCC(=O)NCCCC[C@H](NC(=O)[C@H](CC(=O)O)NC(=O)[C@H](CC(C)C)NC(=O)[C@H](Cc1ccc(O)cc1)NC(=O)[C@H](CCCCN)NC(=O)[C@H](CO)NC(=O)[C@H](Cc1ccc(O)cc1)NC(=O)[C@H](CC(=O)O)NC(=O)[C@H](CO)NC(=O)[C@@H](NC(=O)[C@H](Cc1ccccc1)NC(=O)[C@@H](NC(=O)CNC(=O)[C@H](CCC(N)=O)NC(=O)[C@@H](CO)NC(=O)[C@@H](N)Cc1c[nH]cn1)[C@@H](C)O)[C@@H](C)O)C(=O)N[C@@H](CCCNC(=N)N)C(=O)N[C@@H](CCCNC(=N)N)C(=O)N[C@@H](C)C(=O)N[C@@H](CCC(N)=O)C(=O)N[C@@H](CC(=O)O)C(=O)N[C@@H](Cc1ccccc1)C(=O)N[C@H](C(=O)N[C@@H](CCC(N)=O)C(=O)N[C@@H](Cc1c[nH]c2ccccc12)C(=O)N[C@@H](CC(C)C)C(=O)N[C@@H](CC(C)C)C(=O)N[C@@H](CC(N)=O)C(=O)N[C@H](C(=O)NCC(=O)NCC(=O)N1CCC[C@H]1C(=O)N[C@@H](CO)C(=O)N[C@@H](CO)C(=O)NCC(=O)N[C@@H](C)C(=O)N1CCC[C@H]1C(=O)N1CCC[C@H]1C(=O)N1CCC[C@H]1C(=O)N[C@@H](CO)C(N)=O)[C@@H](C)O)C(C)C)C(=O)O  creatinine (rhesus monkey, female; subcutaneous, 20 µg/kg once daily, 28 days): 47.4 ± 8.6 µmol/L
O=C(c1cc(Cc2n[nH]c(=O)c3ccccc23)ccc1F)N1CC(CNC2CC2)C1  haemoglobin (Wistar Han rat, male, blood; oral, 60 mg/kg daily, 4 weeks): 114 ± 15 g/L
O=C1NC2(CC2)COc2ncc(F)cc2[C@H]2COCCN2c2ccn3ncc1c3n2  aspartate aminotransferase activity (Sprague-Dawley rat, male, serum; oral, 5 mg/kg/day, 4 weeks daily, end of treatment): 94.1 ± 11.4 U/L
CC(C)=CCC/C(C)=C/CCn1cc(CC(P(=O)(O)O)P(=O)(O)O)nn1  fraction unbound (equilibrium dialysis; mouse plasma; 1 µg/mL, 4 h): 0.035
CSCC[C@H](N)C(=O)N[C@@H](C)C(=O)N[C@@H](CCCNC(=N)N)C(=O)N[C@@H](CCCNC(=N)N)C(=O)N[C@@H](CC(=O)O)C(=O)N[C@@H](CCCCN)C(=O)N[C@H](C(=O)N[C@@H](CC(=O)O)C(=O)N[C@@H](Cc1ccccc1)C(=O)N[C@@H](C)C(=O)N[C@@H](CCCNC(=N)N)C(=O)N[C@@H](CCCNC(=N)N)C(=O)N[C@@H](CCCNC(=N)N)C(=O)N[C@@H](CCCNC(=N)N)C(=O)NCCCCCC(=O)NCCCCC(NC(=O)CCCCCNC(=O)[C@H](CCCNC(=N)N)NC(=O)[C@H](CCCNC(=N)N)NC(=O)[C@H](CCCNC(=N)N)NC(=O)[C@H](CCCNC(=N)N)NC(=O)[C@H](C)NC(=O)[C@H](Cc1ccccc1)NC(=O)[C@H](CC(=O)O)NC(=O)[C@@H](NC(=O)[C@H](CCCCN)NC(=O)[C@H](CC(=O)O)NC(=O)[C@H](CCCNC(=N)N)NC(=O)[C@H](CCCNC(=N)N)NC(=O)[C@H](C)NC(=O)[C@@H](N)CCSC)[C@@H](C)O)C(=O)NCCCCC(NC(=O)C(CCCCNC(=O)CCCCCNC(=O)[C@H](CCCNC(=N)N)NC(=O)[C@H](CCCNC(=N)N)NC(=O)[C@H](CCCNC(=N)N)NC(=O)[C@H](CCCNC(=N)N)NC(=O)[C@H](C)NC(=O)[C@H](Cc1ccccc1)NC(=O)[C@H](CC(=O)O)NC(=O)[C@@H](NC(=O)[C@H](CCCCN)NC(=O)[C@H](CC(=O)O)NC(=O)[C@H](CCCNC(=N)N)NC(=O)[C@H](CCCNC(=N)N)NC(=O)[C@H](C)NC(=O)[C@@H](N)CCSC)[C@@H](C)O)NC(=O)CCCCCNC(=O)[C@H](CCCNC(=N)N)NC(=O)[C@H](CCCNC(=N)N)NC(=O)[C@H](CCCNC(=N)N)NC(=O)[C@H](CCCNC(=N)N)NC(=O)[C@H](C)NC(=O)[C@H](Cc1ccccc1)NC(=O)[C@H](CC(=O)O)NC(=O)[C@@H](NC(=O)[C@H](CCCCN)NC(=O)[C@H](CC(=O)O)NC(=O)[C@H](CCCNC(=N)N)NC(=O)[C@H](CCCNC(=N)N)NC(=O)[C@H](C)NC(=O)[C@@H](N)CCSC)[C@@H](C)O)C(N)=O)[C@@H](C)O (stereo partly drawn)  tissue distribution (mouse C57BL/6 female, spine; 6 h, radioiodinated peptide; baseline: total radioactivity): 6.21% and 6.25%
COc1ccc([C@@H]2CC(=O)c3c(O)cc(O[C@@H]4O[C@H](CO)[C@@H](O)[C@H](O)[C@H]4O[C@@H]4O[C@@H](C)[C@H](O)[C@@H](O)[C@H]4O)cc3O2)cc1O  faecal excretion (Sprague-Dawley rat, male, obese, faeces; oral, 100 mg/kg, 12-24 h): 12000 ± 625 ng
CC(C)C[C@@H](NC(=O)[C@@H](CCCNC(=N)N)NC(=O)[C@@H](Cc1c[nH]cn1)NC(=O)[C@@H](Cc1c[nH]c2ccccc12)NC(=O)[C@@H](Cc1c[nH]cn1)NC(=O)[C@@H](Cc1ccccc1)NC(=O)[C@H](NC(=O)[C@@H](Cc1ccc(O)cc1)NC(=O)CNC(=O)CNC(=O)CCOCCOCCOCCNC(=O)CN1CCN(CC(=O)O)CCN(CC(=O)O)CC1)[C@H](C)O)C(=O)N[C@H](CC(N)=O)C(=O)N1CCC[C@@H]1C(=O)O [gallium-68 labelled]  tissue ratio (C57BL/6 mice, male; intravenous, 1.85 MBq, 60 min; baseline: tumour over liver): 5.36 ± 1.1
C=Cc1c(C)c2cc3nc(c(CC(=O)O)c4[nH]c(cc5nc(cc1[nH]2)C(C)=C5CC)c(C)c4C(=O)O)[C@@H](CCC(=O)NCCCC[C@H](NC(C)=O)C(=O)N[C@@H](Cc1ccccc1)C(=O)N[C@@H](Cc1ccccc1)C(=O)N[C@H](C(=O)N[C@@H](CC(C)C)C(=O)N[C@@H](CCCCN)C(=O)N[C@@H](CO)C(=O)NCC(=O)N[C@@H](CCC(N)=O)C(=O)N[C@@H](Cc1ccc(O)cc1)C(=O)N[C@@H](C)C(=O)N[C@@H](CO)C(=O)N[C@@H](Cc1ccc(O)cc1)C(=O)N[C@@H](Cc1c[nH]cn1)C(=O)N[C@@H](CS)C(=O)N[C@@H](Cc1c[nH]c2ccccc12)C(=O)N[C@@H](CS)C(=O)N[C@@H](Cc1c[nH]c2ccccc12)C(=O)N[C@@H](CCCNC(=N)N)C(=O)N[C@@H](CC(=O)O)C(=O)N1CCC[C@H]1C(=O)NCC(=O)N[C@@H](CCCNC(=N)N)C(=O)N[C@@H](CO)C(=O)NCC(=O)NCC(=O)N[C@@H](CO)C(=O)N[C@@H](CCCCN)C(N)=O)C(C)C)[C@@H]3C  blood concentration (mouse, blood; 2 h): 147 µg/mL and 137 µg/mL
C=Cc1c(C)c2cc3nc(c(CC(=O)[O-])c4[n-]c(cc5nc(cc1[n-]2)C(C)=C5CC)c(C)c4C(=O)[O-])C(CCC(=O)[O-])C3C.[Cu+2].[Na+].[Na+].[Na+] (stereo not drawn)  serum cholesterol (Wistar rat, female; oral, 250 mg/kg daily, 28 days): 43.7 ± 11.9 mg/dL

Excerpt of the above:
CC(C)C[C@@H](NC(=O)[C@@H](CCCNC(=N)N)NC(=O)[C@@H](Cc1c[nH]cn1)NC(=O)[C@@H](Cc1c[nH]c2ccccc12)NC(=O)[C@@H](Cc1c[nH]cn1)NC(=O)[C@@H](Cc1ccccc1)NC(=O)[C@H](NC(=O)[C@@H](Cc1ccc(O)cc1)NC(=O)CNC(=O)CNC(=O)CCOCCOCCOCCNC(=O)CN1CCN(CC(=O)O)CCN(CC(=O)O)CC1)[C@H](C)O)C(=O)N[C@H](CC(N)=O)C(=O)N1CCC[C@@H]1C(=O)O [gallium-68 labelled]  tissue ratio (C57BL/6 mice, male; intravenous, 1.85 MBq, 60 min; baseline: tumour over liver): 5.36 ± 1.1
